Measured values gathered from unrelated publications.
Protocols differ between the studies behind these lines. Numbers after ± are the reported error. Non-standard residues stand in square brackets, D forms with d. No end group written: not given here. * marks the point of attachment.
RHO Meta II: RHO Meta II, phosphorylated, retinal (Bos taurus, UniProt P02699)
BIRC5: BIRC5 (Homo sapiens, UniProt O15392)
Sequence of UniProt O15392 (whole entry, looked up): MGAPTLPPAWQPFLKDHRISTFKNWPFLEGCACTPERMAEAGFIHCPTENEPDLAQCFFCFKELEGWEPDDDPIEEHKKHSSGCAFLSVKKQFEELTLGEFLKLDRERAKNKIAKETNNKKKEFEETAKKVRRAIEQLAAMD
ERBB2: ERBB2 fragment (Homo sapiens)
T1: STAG2/RAD21 STAG2 80-1060, RAD21 281-420 (Homo sapiens); chain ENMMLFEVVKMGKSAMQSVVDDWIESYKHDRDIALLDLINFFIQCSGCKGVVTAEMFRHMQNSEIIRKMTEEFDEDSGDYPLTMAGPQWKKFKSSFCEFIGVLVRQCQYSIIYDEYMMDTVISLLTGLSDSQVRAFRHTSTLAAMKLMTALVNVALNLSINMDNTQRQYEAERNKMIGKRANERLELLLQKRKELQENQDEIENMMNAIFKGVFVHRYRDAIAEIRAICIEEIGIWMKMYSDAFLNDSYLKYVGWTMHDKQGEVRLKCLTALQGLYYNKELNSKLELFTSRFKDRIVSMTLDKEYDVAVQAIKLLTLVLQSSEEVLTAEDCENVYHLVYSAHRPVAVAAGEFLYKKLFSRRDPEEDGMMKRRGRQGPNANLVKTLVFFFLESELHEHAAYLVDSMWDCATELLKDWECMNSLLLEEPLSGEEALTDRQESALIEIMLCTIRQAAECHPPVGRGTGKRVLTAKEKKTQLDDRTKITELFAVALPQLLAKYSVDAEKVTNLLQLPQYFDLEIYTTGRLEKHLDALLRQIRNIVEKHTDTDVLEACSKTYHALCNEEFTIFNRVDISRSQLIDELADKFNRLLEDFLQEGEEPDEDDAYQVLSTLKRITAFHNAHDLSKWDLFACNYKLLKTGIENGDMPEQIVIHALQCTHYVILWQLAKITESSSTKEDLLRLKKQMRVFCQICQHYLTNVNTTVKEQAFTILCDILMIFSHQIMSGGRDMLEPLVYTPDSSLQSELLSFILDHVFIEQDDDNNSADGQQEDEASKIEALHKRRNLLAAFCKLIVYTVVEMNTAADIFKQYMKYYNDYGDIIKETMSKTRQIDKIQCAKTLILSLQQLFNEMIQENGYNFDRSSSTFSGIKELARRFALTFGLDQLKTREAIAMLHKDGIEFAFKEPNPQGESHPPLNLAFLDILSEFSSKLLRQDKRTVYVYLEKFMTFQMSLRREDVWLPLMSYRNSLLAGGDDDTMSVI; chain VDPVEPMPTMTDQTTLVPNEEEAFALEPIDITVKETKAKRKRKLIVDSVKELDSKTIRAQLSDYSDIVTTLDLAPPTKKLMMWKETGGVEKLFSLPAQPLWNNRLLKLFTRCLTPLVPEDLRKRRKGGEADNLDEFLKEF
T2: cbrB residues 1-475 (Pseudomonas fluorescens); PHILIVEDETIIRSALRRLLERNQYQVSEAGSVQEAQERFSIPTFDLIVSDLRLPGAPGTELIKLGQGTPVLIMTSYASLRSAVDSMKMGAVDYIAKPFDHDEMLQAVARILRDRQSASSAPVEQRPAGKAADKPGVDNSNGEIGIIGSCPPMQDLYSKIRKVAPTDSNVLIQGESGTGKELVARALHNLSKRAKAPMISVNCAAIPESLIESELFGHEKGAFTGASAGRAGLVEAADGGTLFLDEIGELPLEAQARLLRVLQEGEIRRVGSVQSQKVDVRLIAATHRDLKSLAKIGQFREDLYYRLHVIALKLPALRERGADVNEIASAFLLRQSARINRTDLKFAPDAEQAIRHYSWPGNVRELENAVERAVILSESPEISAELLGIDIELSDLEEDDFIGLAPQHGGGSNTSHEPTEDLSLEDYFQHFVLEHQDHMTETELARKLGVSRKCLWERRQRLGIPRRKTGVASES
B1: PHB2 (Plasmodium falciparum, UniProt Q8IJP8); chain MYKFKFKLRNIYKIHFKPYINMNAPPNFDIHQVKKLGKLGATIGAIIGVTSFGSWFFKNSLYNVEAGKRAIKYNRIFGLSNKIYGEGTHFLIPFFERSIIYDVRTKPRVLMSLTGSRDLQMVNITCRVLSRPNEKKLVEIYRTLGKEYDEKVLPSIINEVLKSVVAQYNASQLITQREVVSKSVREQLVQRAKDFNILLDDASITHLSFSNEYEKAVEAKQVAQQEAERSKYVVLKAEQEKKSTIIKAQGEAEVAKLIGLAVKDNPAFMELKKIELSREVSNIISKCQNKVMLPTDSLLINFTK
B2: lin-42 402-475 (Caenorhabditis elegans, UniProt Q65ZG8); chain GAMDPEFLSYTQINCLENVHRLLKSQSRPESPAKQDEPFDEKKYPPQTPLTREALTLHTKRFEDEYKDTWCRRLKRLSDDV
Sequence of UniProt P0DMV8 (whole entry, looked up): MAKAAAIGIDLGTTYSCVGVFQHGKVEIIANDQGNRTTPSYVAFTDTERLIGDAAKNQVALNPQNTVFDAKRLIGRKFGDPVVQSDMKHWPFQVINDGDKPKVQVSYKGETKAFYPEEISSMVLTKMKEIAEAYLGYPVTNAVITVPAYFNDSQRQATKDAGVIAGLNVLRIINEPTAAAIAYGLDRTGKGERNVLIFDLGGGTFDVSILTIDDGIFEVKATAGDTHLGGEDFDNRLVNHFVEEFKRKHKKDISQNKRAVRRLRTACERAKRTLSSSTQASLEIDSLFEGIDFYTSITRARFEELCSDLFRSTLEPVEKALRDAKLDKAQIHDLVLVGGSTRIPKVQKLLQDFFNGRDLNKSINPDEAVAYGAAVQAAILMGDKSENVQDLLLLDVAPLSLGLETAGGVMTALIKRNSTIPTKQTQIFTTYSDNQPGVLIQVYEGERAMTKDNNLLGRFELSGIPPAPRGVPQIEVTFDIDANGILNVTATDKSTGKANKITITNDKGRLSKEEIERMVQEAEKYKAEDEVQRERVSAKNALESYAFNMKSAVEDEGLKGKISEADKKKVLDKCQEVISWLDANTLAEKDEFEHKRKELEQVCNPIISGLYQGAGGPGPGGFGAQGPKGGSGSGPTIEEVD
Sequence of UniProt P48730 (whole entry, unmodified, looked up): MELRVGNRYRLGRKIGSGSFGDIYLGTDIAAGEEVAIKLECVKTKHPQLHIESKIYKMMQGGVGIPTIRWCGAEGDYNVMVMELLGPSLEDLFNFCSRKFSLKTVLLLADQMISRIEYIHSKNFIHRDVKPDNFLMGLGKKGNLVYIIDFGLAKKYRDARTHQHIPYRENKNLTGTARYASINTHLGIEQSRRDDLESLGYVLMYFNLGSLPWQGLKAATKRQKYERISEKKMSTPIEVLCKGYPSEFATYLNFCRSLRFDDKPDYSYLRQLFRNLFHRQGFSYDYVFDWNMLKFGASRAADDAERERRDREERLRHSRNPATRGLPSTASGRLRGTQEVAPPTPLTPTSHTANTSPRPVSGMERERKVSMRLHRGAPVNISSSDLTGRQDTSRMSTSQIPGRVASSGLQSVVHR
Sequence of UniProt Q5HCX3 (whole entry, looked up): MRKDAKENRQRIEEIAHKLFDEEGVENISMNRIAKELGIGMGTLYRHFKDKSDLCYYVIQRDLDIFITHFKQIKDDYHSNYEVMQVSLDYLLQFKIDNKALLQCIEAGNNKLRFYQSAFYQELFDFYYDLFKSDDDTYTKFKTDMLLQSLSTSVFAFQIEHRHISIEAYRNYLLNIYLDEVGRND
Sequence of UniProt O75151 (whole entry, looked up): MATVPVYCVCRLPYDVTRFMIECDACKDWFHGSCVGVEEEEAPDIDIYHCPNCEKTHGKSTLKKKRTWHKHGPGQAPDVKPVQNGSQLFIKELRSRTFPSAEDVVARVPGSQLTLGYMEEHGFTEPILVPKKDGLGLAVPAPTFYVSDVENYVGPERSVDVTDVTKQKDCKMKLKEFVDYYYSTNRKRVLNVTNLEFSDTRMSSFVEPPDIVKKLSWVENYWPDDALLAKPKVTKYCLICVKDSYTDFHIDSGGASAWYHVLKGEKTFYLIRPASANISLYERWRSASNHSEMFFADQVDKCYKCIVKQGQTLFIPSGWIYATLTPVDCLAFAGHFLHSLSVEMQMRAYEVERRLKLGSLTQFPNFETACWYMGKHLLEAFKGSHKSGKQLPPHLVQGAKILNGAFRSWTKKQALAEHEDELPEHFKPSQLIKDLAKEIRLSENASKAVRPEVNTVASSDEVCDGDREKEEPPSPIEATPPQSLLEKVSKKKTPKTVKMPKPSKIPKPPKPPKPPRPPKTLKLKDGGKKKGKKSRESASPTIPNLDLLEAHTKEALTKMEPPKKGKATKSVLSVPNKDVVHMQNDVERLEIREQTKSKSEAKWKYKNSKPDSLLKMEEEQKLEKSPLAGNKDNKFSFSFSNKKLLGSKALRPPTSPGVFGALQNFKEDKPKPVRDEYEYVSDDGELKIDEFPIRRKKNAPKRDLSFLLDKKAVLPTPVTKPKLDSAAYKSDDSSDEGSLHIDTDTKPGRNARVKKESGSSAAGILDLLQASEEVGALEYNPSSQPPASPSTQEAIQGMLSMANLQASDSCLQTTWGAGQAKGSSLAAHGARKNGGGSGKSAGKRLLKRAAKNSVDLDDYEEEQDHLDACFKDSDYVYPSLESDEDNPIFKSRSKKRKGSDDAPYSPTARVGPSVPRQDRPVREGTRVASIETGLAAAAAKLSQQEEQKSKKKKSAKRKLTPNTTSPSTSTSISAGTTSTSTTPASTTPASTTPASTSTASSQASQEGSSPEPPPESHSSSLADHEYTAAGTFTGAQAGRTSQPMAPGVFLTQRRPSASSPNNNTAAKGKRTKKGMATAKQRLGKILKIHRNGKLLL
Sequence of UniProt O95166 (whole entry, looked up): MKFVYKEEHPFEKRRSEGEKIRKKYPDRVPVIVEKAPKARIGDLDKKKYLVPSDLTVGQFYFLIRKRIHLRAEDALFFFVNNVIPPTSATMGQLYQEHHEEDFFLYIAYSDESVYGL
Sequence of UniProt Q9NZQ7 (whole entry, looked up): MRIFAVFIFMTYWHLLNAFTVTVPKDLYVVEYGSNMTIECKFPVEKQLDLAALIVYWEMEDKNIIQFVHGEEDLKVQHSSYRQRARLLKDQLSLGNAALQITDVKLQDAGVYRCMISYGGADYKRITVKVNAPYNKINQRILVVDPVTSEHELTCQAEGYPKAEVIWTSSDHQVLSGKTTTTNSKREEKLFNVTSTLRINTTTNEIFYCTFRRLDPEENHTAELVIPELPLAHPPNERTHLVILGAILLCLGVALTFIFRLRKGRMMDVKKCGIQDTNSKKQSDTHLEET

| Molecule | target or system | test | system | conditions | measurement | result |
| --- | --- | --- | --- | --- | --- | --- |
| IKENLKDCGLF (GNAT1 residues 340-350) | RHO Meta II | Extra Meta II assay | peptide, native disc membranes | pH 8.0, 0 °C | Kd | 180 µM |
| CNSRQTDREDELI |  |  | peptide, human polyclonal IgM RF CLAU | concentration not given, 5 µg/mL mAb II-481 coated, added: RF at 50% max binding concentration | inhibition | 0% |
| ARTK(me3)QTARKSTG (H3C1 2-13 (UniProt P68431); K4me3) | PHF2 1-451 (Homo sapiens, UniProt O75151) | ITC | peptide | 25 °C, NaCl 300 mM, one-site fit | Kd | 0.16 µM |
| RRRRRRRRRDQKLMEF (INCENP residues 16-22; N-acetyl, D-Arg9, aminohexanoic linker, C-amide) | BIRC5 | QCM | peptide |  | Kd | 0.0682 µM |
| RmS-6, glycosylated (Rhipicephalus microplus) (sequence not shown) | F2 thrombin (Bos taurus) | chromogenic substrate hydrolysis, inhibitor |  | 1 µM | protease inhibition | < 20% |
| YGREDLDVLGL (ARRB1 residues 63-73) | RHO Meta II | Extra Meta II assay | peptide, native disc membranes | pH 8.0, 0 °C | Kd | 1300 µM |
| CHN2 fragment | NCK1 fragment (Homo sapiens) | SPR |  |  | Kd | 8 ± 6 µM |
| RmS-3, glycosylated (Rhipicephalus microplus) | F11 factor XIa (Homo sapiens) | chromogenic substrate hydrolysis, inhibitor |  | 1 µM | protease inhibition | < 20% |
| TATCAACACTCTTTTCTTTTATGATATTTAATAGTTATTGCAAATTCATTGCTAACTTTCTTAACACGTTTTATAATAAACGGAGAGTTATCCGTTTGTCAATTTTAGAGAATTTTAAGTAGGTGTAATCATGCGAAAAGATGCAAAAGA (dsDNA) | gbaA 1-185 (Staphylococcus aureus COL, UniProt Q5HCX3) | EMSA | double-stranded DNA, one strand shown |  | Kd | 0.0152 µM |
| ACE2/pIgR VHH6 Fc fusion ACE2 , Fc at C-terminus (Homo sapiens) | PIGR (Homo sapiens, UniProt P01833) | BLI |  |  | Kd | 200 µM |
| melittin |  | CD titration | POPC 100% POPG 0% vesicles | pH 7.0, 40 °C | free energy of partitioning | -6.1 kcal/mol |
| C3 fragment (Homo sapiens) | sbi fragment (Staphylococcus aureus) | SPR |  | NaCl 75 mM, half-physiological salt | Kd | 0.9 µM |
| TLGLRPVPVATT (designed peptide) | ALB (Homo sapiens, UniProt P02768) | ITC | peptide | pH 7.4, 25 °C, low c value | Kd | 130 µM |
| CD24/Siglec-10 blocking peptide, D-amino acids | CD274 (Homo sapiens, UniProt Q9NZQ7) | MST |  |  | Kd | 7.53 µM |
| {FITC}-QNTDDVQTSF-OH (ACE2 796-805 (Homo sapiens); N-terminal FITC; FITC = O=C1OC2(c3ccc(O)cc3Oc3cc(O)ccc32)c2ccc(NC(=S)*)cc21) | PDZK1 2-107 (Homo sapiens, UniProt Q5T2W1) | FP | peptide |  | Kd | 13.9 µM |
| CTCF fragment (Homo sapiens) (sequence not shown) | T1, STAG2/RAD21 STAG2 80-1060, RAD21 281-420 (Homo sapiens) | ITC |  | one-site fit | Kd | 0.62 µM |
| TGTGGCCAGCGAGAGTTGAGGGTGCGCCCCCACAGGTAACACCCACAGATGTGAAAAAACTGTTACCGCGGATATTTCGCGTAACAAAAGCCGGGGCTTACGGTAACGAAGCCCCGGCTTTTTTTGGTCCGTCAAAAACCCGAAACCCCCTCAACCTCCCGGTTTTGCTGG (dsDNA (Pseudomonas fluorescens); blunt) | T2, cbrB residues 1-475 (Pseudomonas fluorescens) | EMSA | double-stranded DNA, one strand shown |  | Kd | 6.67 ± 0.31 µM |
| MAPRGFSCLLLLTGEIDLPVKRRA (MT-RNR2 residues 1-24 S14G) | Aβ42, FITC label (UniProt P05067) | MST | peptide | 10 min, 25 °C, added: FITC-Aβ42 50 nM | Kd | 118 µM |
| B1 (PHB2) | HSPA1A (Homo sapiens, UniProt P0DMV8) | MST |  |  | Kd | 1.16 ± 0.5 µM |
| CKTIYYLGYYNPNEYRY (designed peptide) | ERBB2 | SPR | peptide |  | Kd | 0.0812 µM |
| DQK[Ac5c]MEF-NH2 (INCENP residues 16-22 cycloleucine substitution; C-amide; Ac5c = NC1(C(=O)O)CCCC1) | BIRC5 | QCM | peptide |  | Kd | 0.0971 µM |
| B2 (lin-42 402-475) | CSNK1D catalytic domain 1-317 (UniProt P48730) | BLI |  | kinetic analysis | Kd | 0.348 µM |
| GCCTAAAAGAGGATATCCTTATAGCATAATTAACTAAACTTAATTAAATAAATAATATATCCTAAGGAGAGAAATG (dsDNA) | Manganese transport regulator 1-215 Y167A/F187A (Streptococcus pyogenes, UniProt A0A0H2UTK0) | EMSA | double-stranded DNA, one strand shown | added: Mn2+ 300 µM | binding | binds |
| CKKIPPLGWWNPNTWRY (designed peptide) | ERBB2 | SPR | peptide |  | Kd | 0.267 µM |
| EKGEVEESEYVVITVRNEP (FNIP2 558-576 (Homo sapiens, UniProt Q9P278)) | GABARAP (Homo sapiens, UniProt O95166) | competition in solution, SPR | peptide | single-site fit | Kd | 6.2 ± 3 µM |

Repeated from above:
| Molecule | target or system | test | system | conditions | measurement | result |
| --- | --- | --- | --- | --- | --- | --- |
| C3 fragment (Homo sapiens) | sbi fragment (Staphylococcus aureus) | SPR |  | NaCl 75 mM, half-physiological salt | Kd | 0.9 µM |
| TLGLRPVPVATT (designed peptide) | ALB (Homo sapiens, UniProt P02768) | ITC | peptide | pH 7.4, 25 °C, low c value | Kd | 130 µM |
